Experimental data pooled from the literature.
“And” joins repeats or separate records; there may be more than shown. ± gives the spread as reported. Ends that are not written are not given here. * marks the point of attachment.

For `maraviroc`, the maximum inhibition was 5.95% (human coronavirus OC43; virus-induced cell death; MRC-5).
With `nonaarginine` the Kd was 1.11 ± 0.1 µM (PorA peptide pore; peptide binding, planar bilayer single-channel recording; pH 7.4, -15 mV, cis side, 150 mM KCl).
`Ro 31-8220` — result for “PB1-F2 protein level”: “no effect” (influenza A virus H1N1; viral infection; concentration not given).
With `tunicamycin` the IC50 was 1.6 µM (Mycobacterium tuberculosis; growth, Microplate Alamar Blue; Erdman).
`ETTLKSF` gave an inhibition of ~45% and 45% (Plasmodium falciparum; merozoite invasion; peptide, 3D7; 200 µg/mL, 20 h, biotinylated peptide).
For `aspterric acid`, the inhibition was 99.1% (Arabidopsis thaliana; root length; Col-0, seedlings; 50 µg/mL, half-strength MS).
The maximum inhibition of `AZ3146` is reported as 2.13% (human coronavirus OC43; virus-induced cell death; MRC-5).
`oseltamivir carboxylate` gave an EC50 of 77.6 µM (Influenza B virus; viral replication, MTS).
For `Polymyxin B`, the survival was 0% (mouse; intraperitoneal, 30 mg/kg single dose, day 5).
The EC50 of `oseltamivir carboxylate` is reported as > 100 µM (Influenza A virus H3N2; cytopathic effect, visual CPE score; MDCK).
`insulin human` — result for “mRNA fold change”: 1.16 (measured: GCLM; mouse, uninfected, brain; ip, dose not given, added: insulin; reference: PBS-treated).
For `oseltamivir carboxylate`, the EC50 was 9 µM (Influenza A virus; viral replication, visual CPE score; MDCK, H1N1).
`Biotin-SGSGSWFEPGL (N-biotinylated; Biotin = O=C1N[C@H]2[C@H](CS[C@H]2CCCCC(=O)*)N1)` — result for “merozoite invasion inhibition”: “no inhibition” (Plasmodium falciparum; 3D7; 400 µg/mL, 20 h).

Some of these lines once more:
For `maraviroc`, the maximum inhibition was 5.95% (human coronavirus OC43; virus-induced cell death; MRC-5).
With `nonaarginine` the Kd was 1.11 ± 0.1 µM (PorA peptide pore; peptide binding, planar bilayer single-channel recording; pH 7.4, -15 mV, cis side, 150 mM KCl).
